Published values of several laboratories.
Protocols differ between the studies behind these lines. Values joined by “and” are separate records of one study, mostly repeats; a detail may differ. ± marks the error that the study gave.
KCNJ13 M125R: Inward rectifier potassium channel 13 (KCNJ13, Homo sapiens, UniProt O60928, M125R)
lasR: Transcriptional activator protein LasR (lasR, Pseudomonas aeruginosa, UniProt P25084)

The chains behind the UniProt entries cited, without tags or fusion partners. Residues count along the entry.
UniProt O60928, whole entry M125R: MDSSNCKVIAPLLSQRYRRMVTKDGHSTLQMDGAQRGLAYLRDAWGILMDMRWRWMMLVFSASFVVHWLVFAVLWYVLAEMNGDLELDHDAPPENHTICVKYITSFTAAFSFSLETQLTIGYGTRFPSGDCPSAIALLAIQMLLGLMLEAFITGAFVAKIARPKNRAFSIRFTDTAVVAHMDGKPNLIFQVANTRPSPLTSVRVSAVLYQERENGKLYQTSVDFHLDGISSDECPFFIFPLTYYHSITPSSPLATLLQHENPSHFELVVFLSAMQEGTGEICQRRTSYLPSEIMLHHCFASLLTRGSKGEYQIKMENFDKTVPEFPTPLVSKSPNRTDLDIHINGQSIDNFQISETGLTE
UniProt P25084, whole entry: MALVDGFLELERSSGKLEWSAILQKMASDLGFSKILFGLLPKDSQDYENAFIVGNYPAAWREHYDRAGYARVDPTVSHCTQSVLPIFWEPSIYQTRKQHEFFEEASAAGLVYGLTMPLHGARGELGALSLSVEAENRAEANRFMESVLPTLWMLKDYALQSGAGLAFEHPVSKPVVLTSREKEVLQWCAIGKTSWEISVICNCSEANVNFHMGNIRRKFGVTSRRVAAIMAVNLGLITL
UniProt P30291, whole entry: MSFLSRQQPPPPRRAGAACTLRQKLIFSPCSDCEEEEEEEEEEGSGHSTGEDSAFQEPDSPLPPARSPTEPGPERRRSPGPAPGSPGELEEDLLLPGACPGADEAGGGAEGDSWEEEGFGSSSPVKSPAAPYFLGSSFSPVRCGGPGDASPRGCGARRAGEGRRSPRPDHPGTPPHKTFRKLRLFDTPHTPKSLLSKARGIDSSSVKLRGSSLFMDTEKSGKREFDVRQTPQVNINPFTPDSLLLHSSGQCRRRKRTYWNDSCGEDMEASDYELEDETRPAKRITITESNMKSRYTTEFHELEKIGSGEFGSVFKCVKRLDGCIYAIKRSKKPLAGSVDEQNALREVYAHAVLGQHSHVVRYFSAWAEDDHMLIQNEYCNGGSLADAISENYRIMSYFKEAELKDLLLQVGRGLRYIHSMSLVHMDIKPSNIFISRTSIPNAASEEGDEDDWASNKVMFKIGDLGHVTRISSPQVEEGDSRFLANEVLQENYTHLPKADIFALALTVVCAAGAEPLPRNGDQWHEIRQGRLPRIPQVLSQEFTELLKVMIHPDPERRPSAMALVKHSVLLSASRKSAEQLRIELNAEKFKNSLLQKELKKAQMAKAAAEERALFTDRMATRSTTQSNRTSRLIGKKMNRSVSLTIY
UniProt Q96SW2, whole entry: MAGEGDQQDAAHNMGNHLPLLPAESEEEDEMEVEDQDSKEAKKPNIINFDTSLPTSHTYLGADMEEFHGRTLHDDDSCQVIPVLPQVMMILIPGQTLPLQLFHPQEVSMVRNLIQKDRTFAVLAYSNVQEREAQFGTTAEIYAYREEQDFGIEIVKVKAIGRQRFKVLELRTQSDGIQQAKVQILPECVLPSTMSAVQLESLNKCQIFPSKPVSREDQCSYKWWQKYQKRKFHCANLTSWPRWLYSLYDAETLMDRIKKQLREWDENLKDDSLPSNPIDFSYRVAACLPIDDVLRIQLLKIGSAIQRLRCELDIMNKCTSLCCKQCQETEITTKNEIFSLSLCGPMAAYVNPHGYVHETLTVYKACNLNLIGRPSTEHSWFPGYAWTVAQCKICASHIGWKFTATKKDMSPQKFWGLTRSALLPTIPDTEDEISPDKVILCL
UniProt P50406, whole entry: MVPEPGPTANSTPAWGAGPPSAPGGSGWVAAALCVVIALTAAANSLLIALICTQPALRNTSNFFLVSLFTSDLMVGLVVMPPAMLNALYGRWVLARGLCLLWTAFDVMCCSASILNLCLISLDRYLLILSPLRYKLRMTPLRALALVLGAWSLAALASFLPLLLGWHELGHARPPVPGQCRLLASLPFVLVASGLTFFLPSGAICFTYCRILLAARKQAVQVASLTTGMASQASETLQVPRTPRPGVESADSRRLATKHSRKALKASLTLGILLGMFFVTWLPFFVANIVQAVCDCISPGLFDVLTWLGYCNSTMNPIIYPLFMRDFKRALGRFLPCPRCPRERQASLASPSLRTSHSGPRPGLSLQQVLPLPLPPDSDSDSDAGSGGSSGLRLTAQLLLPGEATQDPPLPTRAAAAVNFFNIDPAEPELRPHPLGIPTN
UniProt Q6XEC0, 23-265 limits assumed: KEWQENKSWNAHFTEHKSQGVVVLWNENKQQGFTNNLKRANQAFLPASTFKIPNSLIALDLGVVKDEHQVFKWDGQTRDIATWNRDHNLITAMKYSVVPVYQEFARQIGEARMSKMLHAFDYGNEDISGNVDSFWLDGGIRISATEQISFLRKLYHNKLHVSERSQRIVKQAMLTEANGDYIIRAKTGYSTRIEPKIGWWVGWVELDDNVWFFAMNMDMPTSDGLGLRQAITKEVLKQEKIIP
UniProt Q13148, whole entry: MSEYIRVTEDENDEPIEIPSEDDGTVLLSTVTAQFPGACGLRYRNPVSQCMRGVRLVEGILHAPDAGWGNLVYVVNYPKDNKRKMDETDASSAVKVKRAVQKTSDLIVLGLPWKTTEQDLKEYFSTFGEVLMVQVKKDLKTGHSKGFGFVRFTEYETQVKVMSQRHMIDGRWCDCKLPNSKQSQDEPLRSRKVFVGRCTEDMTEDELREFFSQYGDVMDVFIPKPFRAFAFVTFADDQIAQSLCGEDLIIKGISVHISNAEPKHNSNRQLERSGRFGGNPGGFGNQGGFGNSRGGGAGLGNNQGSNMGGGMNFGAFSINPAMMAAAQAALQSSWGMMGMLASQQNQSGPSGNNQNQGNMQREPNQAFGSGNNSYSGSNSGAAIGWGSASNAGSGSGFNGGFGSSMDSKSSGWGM
UniProt O39928, 2424-3014 limits assumed: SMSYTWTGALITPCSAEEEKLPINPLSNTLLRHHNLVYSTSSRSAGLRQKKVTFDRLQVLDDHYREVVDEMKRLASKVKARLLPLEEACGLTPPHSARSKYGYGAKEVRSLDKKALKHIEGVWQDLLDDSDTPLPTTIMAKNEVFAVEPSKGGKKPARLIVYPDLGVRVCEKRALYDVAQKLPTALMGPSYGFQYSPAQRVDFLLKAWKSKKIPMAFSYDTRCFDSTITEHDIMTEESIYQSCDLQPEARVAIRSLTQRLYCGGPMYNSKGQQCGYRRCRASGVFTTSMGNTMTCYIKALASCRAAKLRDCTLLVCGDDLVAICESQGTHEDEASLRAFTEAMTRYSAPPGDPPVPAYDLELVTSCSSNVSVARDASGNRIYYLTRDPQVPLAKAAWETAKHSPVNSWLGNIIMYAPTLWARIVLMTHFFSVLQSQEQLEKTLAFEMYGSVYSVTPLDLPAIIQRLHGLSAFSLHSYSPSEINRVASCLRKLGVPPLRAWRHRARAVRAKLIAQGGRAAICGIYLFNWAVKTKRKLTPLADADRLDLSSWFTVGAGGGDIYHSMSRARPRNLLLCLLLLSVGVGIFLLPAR
UniProt P42264, 32-919 limits assumed: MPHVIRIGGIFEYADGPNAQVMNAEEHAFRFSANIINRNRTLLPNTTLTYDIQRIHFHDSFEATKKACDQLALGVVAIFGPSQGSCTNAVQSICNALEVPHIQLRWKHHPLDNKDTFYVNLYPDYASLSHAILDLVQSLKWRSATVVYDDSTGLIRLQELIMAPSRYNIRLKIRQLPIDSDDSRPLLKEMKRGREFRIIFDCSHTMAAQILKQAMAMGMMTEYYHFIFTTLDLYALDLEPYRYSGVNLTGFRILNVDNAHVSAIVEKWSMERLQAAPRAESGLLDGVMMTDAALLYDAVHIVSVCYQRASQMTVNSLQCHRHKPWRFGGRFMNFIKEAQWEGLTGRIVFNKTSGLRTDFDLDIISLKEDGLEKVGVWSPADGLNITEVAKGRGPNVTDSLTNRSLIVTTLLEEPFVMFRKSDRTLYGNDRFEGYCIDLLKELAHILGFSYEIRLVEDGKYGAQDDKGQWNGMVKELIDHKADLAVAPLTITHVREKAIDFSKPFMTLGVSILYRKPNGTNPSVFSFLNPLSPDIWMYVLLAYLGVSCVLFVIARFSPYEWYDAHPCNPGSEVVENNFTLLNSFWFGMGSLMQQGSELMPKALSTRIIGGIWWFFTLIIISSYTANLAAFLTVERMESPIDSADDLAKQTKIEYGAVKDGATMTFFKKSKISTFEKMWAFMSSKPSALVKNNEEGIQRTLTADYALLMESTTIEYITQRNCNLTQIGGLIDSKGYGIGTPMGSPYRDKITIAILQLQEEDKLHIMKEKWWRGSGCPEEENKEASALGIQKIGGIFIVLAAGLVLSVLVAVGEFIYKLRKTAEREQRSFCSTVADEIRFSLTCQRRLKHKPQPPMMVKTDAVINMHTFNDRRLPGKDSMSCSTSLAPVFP
UniProt Q60492, whole entry: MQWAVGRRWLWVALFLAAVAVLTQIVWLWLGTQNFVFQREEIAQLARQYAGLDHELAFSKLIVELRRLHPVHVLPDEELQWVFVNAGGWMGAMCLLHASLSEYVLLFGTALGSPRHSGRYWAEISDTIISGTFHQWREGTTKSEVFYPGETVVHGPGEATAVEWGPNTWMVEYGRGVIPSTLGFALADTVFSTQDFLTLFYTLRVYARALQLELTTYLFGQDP
UniProt Q16531, whole entry partner: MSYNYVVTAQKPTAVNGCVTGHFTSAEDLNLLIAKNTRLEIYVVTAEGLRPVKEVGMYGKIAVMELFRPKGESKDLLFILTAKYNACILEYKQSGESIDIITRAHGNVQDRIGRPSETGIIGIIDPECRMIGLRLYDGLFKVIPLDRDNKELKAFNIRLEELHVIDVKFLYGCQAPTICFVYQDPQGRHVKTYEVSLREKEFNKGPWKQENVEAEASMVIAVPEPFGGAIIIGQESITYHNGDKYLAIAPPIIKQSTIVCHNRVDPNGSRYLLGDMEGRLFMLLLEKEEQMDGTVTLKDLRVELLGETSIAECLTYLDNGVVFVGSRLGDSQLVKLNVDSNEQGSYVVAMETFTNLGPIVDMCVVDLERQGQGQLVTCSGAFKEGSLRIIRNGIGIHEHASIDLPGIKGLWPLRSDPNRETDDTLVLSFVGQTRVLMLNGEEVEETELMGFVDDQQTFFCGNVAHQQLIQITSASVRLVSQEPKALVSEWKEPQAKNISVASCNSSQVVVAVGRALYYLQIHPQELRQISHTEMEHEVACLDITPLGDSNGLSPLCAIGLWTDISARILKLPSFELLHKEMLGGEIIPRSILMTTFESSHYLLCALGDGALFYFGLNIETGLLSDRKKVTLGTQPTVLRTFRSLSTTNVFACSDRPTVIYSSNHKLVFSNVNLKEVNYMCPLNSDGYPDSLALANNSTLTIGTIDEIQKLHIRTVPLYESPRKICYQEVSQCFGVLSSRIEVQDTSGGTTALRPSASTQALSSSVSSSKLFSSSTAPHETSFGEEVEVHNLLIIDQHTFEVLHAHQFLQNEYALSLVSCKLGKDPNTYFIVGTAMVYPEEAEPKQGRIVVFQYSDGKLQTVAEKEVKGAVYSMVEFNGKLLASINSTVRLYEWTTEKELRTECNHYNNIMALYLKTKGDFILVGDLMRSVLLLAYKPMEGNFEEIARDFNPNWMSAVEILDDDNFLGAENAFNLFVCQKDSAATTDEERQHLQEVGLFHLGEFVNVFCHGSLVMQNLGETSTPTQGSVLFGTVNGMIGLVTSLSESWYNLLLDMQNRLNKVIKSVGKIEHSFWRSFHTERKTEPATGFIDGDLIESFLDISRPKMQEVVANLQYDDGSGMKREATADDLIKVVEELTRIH

O=C(NC1CCN(Cc2cc(Cl)c3cccnc3c2O)CC1)OCc1ccccc1
IC50 (KCNJ13 M125R; ion current, inhibitor, thallium flux; T-REx-HEK293): 6300 nM

CCCCCCCCCCCCNC(=O)N[C@H](C(=O)N[C@H]1/C=C/CCNC(=O)/C=C/[C@H](C)NC1=O)C(C)C
Ki (Proteasome subunit beta type-6 (PSMB6, Homo sapiens, UniProt P28072); caspase-like activity, inhibitor, Proteasome-Glo; MM.1R; 24 h): 104 ± 46.6 nM

COc1ccc2c(c1)sc1nc(-c3ccc4c(c3)CN(C3CCC(=O)NC3=O)C4=O)c(NCc3ccccc3)n12 (stereo not drawn)
DC50 (WEE1/CRBN (Homo sapiens, UniProt P30291+Q96SW2); degrader, HiBiT luciferase; Jurkat (HiBiT-tagged); 5 h): 133 nM and 140 nM

[11CH3]Nc1ccc(C(=O)C2CCN(C3Cc4ccccc4CC3O)CC2)cc1 (single isomer, unassigned)
uptake (Sprague-Dawley rat, cortex; 30 min): 0.262 %ID/g

COc1ccc(C(=O)Oc2c(Br)cc(Br)cc2CNC(=O)c2ccccc2[N+](=O)[O-])cc1
EC50 (lasR; reporter gene, agonist; Escherichia coli JLD271 lasI-lacZ reporter): 9.2 nM

COc1ccc(CN[C@@H]2CO[C@H](C(c3ccccc3)c3ccccc3)C[C@H]2O)cc1
inhibition (5-hydroxytryptamine receptor 6 (HTR6, Homo sapiens, UniProt P50406); radioligand binding; 10 µM, with: [3H]LSD): 8.7%

Nc1cc(S(=O)(=O)O)cc2cc(S(=O)(=O)O)cc(O)c12
Ki (Beta-lactamase OXA-48 (OXA-48, Klebsiella pneumoniae, UniProt Q6XEC0); enzyme activity, inhibitor): 4.1 µg/mL

O=C(NC1CCN(Cc2cc(Cl)c3cccnc3c2O)CC1)OC1CCCCC1
IC50 (KCNJ13 M125R; ion current, inhibitor, thallium flux; T-REx-HEK293): 4200 nM

C=CC(=O)Nc1cc(-n2c(=O)ccc3cnc4ccc(-c5cn[nH]c5)cc4c32)ccc1C
concentration inducing apoptosis (Ramos; western blot, refers to: PARP and caspase-3 cleavage; 8 h): 1 µM

Cc1nc2c[nH]c(/C=C/C=C/c3ccc(N(C)C)cc3)cn-2c1=O
Kd (TAR DNA-binding protein 43 (TARDBP, Homo sapiens, UniProt Q13148); binding): 2300 nM

O=c1ccn([C@@H]2O[C@H](COP(=O)(O)OP(=O)(O)OP(=O)(O)O)[C@@H](O)[C@]2(F)Br)c(=O)[nH]1
IC50 (Genome polyprotein, NS5B polymerase (Hepatitis C virus genotype 5a, UniProt O39928); polymerase activity, inhibitor; Hepatitis C virus, genotype 5a): 1200 nM

O=C(Oc1c(Br)cc(Br)cc1CNC(=O)c1ccccc1[N+](=O)[O-])c1ccc(Cl)cc1
EC50 (lasR; reporter gene, agonist; Escherichia coli JLD271 lasI-lacZ reporter): 2.09 nM

CC(CCN[C@H](CN[C@H](CO)CN1CCC[C@H]1CN[C@H](CN)c1ccccc1)c1ccccc1)c1ccccc1 (stereo partly drawn)
potentiation of amikacin (Escherichia coli; bacterial growth; 8 µM, fold shift of IC50, with: amikacin): 2.1 fold

C[C@H](CS)C(=O)N[C@H](Cc1c[nH]c2ccccc12)C(=O)O
MIC of meropenem (Klebsiella pneumoniae; IMP-1 producing; 50 µM, with: meropenem): 0.125 µg/mL

O=C(O)C(Cc1nn[nH]n1)[C@@H]1CCN[C@H]1C(=O)O (relative stereo)
Ki (Glutamate receptor ionotropic, kainate 3 (Rattus norvegicus, UniProt P42264); binding; Sf9 cells; cloned homomeric receptor, with: [3H]kainate): 4900 ± 500 nM

O[C@H](c1ccc(F)cc1)C(F)(F)CCN1CCC(O)(c2ccc(Cl)cc2)CC1 (racemic)
Ki (Sigma non-opioid intracellular receptor 1 (SIGMAR1, Cavia porcellus, UniProt Q60492)): 5.3 ± 0.6 nM

O=C(NCc1cc(Br)cc(Br)c1OC(=O)c1ccccc1[N+](=O)[O-])c1ccccc1Cl
EC50 (lasR; reporter gene, agonist; Escherichia coli JLD271 lasI-lacZ reporter): 5.12 nM

NCCNCCSc1ccccc1
unbound concentration (ultrafiltration; mouse plasma, female; 12.5 µg/mL, 60 min, 37 °C): 9770 ± 460 ng/mL

Excerpt of the above:
O=C(NCc1cc(Br)cc(Br)c1OC(=O)c1ccccc1[N+](=O)[O-])c1ccccc1Cl
EC50 (lasR; reporter gene, agonist; Escherichia coli JLD271 lasI-lacZ reporter): 5.12 nM
